Experimental data gathered from unrelated publications.
Parts stem from different laboratories: compare values within a part only. “And” joins repeats or separate records; there may be more than shown.
UniProt Q04912, sequence (whole entry, looked up): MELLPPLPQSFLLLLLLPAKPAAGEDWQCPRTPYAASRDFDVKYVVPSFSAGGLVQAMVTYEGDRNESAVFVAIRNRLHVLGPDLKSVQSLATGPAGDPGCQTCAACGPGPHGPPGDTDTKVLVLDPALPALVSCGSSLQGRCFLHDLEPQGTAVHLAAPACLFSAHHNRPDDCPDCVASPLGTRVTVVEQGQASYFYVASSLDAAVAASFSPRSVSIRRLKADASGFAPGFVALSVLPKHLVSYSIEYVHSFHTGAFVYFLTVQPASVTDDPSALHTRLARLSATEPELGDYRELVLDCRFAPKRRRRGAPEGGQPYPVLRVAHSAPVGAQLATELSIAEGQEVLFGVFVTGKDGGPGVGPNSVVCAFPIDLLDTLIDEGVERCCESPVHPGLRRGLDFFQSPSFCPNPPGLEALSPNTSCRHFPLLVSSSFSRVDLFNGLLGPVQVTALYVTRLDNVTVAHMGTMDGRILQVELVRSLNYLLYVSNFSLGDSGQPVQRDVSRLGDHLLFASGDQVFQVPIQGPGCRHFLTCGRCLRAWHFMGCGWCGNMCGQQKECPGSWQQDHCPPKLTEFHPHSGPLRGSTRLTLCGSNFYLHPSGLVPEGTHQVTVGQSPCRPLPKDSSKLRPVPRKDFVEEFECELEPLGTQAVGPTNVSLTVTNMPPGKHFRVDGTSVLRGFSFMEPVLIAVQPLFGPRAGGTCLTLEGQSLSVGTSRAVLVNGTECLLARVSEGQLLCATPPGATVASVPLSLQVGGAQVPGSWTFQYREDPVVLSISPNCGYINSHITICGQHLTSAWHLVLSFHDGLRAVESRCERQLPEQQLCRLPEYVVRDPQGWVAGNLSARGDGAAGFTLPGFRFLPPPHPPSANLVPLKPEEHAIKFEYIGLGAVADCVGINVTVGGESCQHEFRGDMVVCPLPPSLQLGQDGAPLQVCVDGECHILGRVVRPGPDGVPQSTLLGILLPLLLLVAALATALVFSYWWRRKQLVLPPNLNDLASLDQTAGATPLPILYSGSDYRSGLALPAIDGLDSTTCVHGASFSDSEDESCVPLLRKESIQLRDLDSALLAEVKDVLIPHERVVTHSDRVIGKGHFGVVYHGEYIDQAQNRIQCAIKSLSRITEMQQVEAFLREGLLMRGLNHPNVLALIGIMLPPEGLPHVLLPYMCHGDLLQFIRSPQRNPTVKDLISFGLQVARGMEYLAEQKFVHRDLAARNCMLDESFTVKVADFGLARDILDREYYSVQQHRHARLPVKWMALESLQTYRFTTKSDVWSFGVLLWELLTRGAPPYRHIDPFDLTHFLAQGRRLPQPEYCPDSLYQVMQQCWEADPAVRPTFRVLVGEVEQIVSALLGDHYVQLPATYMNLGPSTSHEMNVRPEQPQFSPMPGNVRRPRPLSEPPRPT
UniProt P42336, sequence (whole entry, unmodified, looked up): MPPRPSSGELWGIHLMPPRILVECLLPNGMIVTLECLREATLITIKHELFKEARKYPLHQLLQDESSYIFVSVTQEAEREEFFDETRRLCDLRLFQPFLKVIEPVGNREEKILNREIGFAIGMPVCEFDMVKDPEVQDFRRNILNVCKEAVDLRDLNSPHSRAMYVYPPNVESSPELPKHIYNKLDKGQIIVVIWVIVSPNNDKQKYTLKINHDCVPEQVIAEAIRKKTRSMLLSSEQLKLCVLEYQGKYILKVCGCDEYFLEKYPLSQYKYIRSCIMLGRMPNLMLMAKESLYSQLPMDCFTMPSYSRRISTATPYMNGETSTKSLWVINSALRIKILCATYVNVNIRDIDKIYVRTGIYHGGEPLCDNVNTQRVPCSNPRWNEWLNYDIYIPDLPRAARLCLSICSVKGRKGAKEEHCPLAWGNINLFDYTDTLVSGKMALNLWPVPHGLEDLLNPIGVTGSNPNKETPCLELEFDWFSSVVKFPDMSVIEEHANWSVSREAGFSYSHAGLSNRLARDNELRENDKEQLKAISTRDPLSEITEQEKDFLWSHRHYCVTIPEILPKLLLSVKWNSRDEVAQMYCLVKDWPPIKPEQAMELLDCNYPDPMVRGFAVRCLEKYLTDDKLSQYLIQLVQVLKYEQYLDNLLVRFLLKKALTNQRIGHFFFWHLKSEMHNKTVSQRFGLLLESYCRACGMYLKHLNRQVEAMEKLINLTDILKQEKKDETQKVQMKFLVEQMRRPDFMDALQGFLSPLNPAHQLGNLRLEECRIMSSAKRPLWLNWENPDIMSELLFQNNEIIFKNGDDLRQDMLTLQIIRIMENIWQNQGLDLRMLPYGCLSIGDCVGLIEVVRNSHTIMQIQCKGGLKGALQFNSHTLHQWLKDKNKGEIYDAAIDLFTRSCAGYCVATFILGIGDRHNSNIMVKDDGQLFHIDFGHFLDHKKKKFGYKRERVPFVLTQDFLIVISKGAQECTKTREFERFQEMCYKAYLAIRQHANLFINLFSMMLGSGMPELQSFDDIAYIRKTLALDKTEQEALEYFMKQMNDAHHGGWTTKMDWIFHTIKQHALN

Series 1
Target: DNA polymerase theta, ATPase domain (POLQ, Homo sapiens, UniProt O75417)
UniProt O75417, sequence (whole entry, unmodified, looked up): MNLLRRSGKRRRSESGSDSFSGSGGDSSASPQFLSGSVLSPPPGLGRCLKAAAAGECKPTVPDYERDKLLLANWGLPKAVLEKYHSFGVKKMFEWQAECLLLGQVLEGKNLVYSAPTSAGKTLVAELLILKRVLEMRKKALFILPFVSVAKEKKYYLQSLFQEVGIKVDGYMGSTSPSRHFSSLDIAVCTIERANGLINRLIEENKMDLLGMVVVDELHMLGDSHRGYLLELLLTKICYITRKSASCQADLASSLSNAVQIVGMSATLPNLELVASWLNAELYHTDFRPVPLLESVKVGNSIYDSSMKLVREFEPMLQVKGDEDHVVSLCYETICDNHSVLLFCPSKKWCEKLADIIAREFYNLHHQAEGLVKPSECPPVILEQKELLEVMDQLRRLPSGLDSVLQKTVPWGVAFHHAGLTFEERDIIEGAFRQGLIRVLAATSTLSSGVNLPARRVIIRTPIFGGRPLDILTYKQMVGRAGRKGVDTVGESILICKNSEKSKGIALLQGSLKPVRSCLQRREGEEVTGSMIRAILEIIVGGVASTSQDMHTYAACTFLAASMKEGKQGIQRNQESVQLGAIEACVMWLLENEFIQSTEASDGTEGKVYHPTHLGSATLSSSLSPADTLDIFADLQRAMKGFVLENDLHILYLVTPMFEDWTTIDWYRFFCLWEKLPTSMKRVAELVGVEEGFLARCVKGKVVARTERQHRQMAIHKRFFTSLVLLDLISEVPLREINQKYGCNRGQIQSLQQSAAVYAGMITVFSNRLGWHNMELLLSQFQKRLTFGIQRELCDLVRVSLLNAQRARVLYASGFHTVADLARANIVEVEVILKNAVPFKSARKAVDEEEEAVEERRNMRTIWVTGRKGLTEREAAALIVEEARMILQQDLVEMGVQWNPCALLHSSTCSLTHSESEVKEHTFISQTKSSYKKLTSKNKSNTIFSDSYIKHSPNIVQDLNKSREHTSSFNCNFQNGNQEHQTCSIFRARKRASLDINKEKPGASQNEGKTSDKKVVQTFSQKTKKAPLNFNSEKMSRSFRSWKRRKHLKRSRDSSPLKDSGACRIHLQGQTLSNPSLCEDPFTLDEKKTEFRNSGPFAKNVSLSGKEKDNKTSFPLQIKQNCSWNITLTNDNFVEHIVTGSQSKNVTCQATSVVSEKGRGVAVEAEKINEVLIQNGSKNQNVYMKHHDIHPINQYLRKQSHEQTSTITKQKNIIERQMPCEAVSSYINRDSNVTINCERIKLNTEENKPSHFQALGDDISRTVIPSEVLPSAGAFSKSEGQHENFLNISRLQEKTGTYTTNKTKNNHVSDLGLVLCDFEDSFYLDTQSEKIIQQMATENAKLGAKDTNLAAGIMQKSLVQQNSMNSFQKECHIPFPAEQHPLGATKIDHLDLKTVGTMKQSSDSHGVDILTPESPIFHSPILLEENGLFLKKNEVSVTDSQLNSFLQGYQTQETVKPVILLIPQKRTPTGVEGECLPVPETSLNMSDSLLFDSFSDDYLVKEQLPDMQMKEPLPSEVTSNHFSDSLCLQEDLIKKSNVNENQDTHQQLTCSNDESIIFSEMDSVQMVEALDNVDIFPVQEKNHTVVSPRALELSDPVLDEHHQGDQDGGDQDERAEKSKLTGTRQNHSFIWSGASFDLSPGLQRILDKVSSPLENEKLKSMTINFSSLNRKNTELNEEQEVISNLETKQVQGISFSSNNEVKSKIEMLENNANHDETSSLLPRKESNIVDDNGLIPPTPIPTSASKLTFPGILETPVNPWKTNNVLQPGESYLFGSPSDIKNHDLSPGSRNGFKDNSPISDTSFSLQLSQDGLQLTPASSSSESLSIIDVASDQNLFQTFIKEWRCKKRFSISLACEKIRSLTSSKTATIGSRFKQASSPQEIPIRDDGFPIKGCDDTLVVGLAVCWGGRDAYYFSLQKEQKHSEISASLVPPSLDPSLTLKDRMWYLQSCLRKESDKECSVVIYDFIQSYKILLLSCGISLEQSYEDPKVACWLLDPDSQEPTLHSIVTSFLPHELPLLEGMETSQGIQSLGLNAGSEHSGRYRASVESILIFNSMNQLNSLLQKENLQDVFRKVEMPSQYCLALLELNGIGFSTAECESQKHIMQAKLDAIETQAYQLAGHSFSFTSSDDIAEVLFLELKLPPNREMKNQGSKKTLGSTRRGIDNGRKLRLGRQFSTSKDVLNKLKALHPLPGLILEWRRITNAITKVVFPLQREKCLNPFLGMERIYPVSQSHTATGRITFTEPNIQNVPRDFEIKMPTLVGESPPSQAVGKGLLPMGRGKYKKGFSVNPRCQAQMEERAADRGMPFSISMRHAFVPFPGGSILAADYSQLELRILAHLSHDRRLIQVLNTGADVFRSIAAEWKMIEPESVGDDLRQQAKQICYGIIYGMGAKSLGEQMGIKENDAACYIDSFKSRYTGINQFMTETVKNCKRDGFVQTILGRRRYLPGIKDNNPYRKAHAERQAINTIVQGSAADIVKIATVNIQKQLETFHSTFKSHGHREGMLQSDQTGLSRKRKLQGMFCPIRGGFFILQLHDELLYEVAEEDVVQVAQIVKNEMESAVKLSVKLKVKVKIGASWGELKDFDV
Effect on: enzyme activity
Action: inhibitor
Tested at: 77 µM
Relative to: untreated
With `OC[C@H]1O[C@@H](n2cnc3c(NC4CCCC4)ncnc32)[C@H](O)[C@@H]1O` the remaining activity was 99.3%.
For `C=CC(=O)Nc1cccc(Nc2nc(Nc3ccc(N4CCN(C(C)=O)CC4)cc3OC)ncc2C(F)(F)F)c1`, the remaining activity was 103%.
For `CC(=O)/N=c1/sc(S(N)(=O)=O)nn1C`, the remaining activity was 102% and 99.3%.
For `CCOc1nc(NC(=O)Cc2cc(OC)ccc2OC)cc(N)c1C#N`, the remaining activity was 98.1%.
`NCCCCCCCCCCN` has a remaining activity of 104%.
With `CSc1ccc2c(c1)C(N1CCN(C)CC1)Cc1ccccc1S2` (stereo not drawn) the remaining activity was 101%.
The remaining activity of `CC[N+](CC)(CC)CC` is reported as 98.7%.
The remaining activity of `CCN(CC)CCNC(=O)c1ccc(NC(C)=O)cc1` is reported as 103%.

Series 2
Structure (SMILES): C[C@@H]1CN(c2cc(-c3nn(C)c4ccc(OC5(C)CC5)cc34)ncn2)C[C@H](C)O1
Effect on: cell-free assay
Method: competition with immobilised ligand
Tested at: 1 µM
It gave 100% for remaining binding (Macrophage-stimulating protein receptor (MST1R, Homo sapiens, UniProt Q04912)).
It gave 55% for remaining binding (Tyrosine-protein kinase JAK2, JH1 (JAK2, Homo sapiens, UniProt O60674)).
It gave 100% for remaining binding (Phosphatidylinositol 4,5-bisphosphate 3-kinase catalytic subunit alpha isoform (PIK3CA, Homo sapiens, UniProt P42336)).
For Testis-specific serine/threonine-protein kinase 3 (TSSK3, Homo sapiens, UniProt Q96PN8): remaining binding read 75%.
For Mitogen-activated protein kinase 9 (MAPK9, Homo sapiens, UniProt P45984): remaining binding read 78%.
For Tyrosine-protein kinase receptor Tie-1 (TIE1, Homo sapiens, UniProt P35590): remaining binding read 92%.
It gave 100% for remaining binding (Ephrin type-A receptor 6 (EPHA6, Homo sapiens, UniProt Q9UF33)).
The remaining binding was 91% (Mitogen-activated protein kinase kinase kinase 13 (MAP3K13, Homo sapiens, UniProt O43283)).
It gave 100% for remaining binding (5'-AMP-activated protein kinase catalytic subunit alpha-2 (PRKAA2, Homo sapiens, UniProt P54646)).
The remaining binding was 98% (Cyclin-dependent kinase 3 (CDK3, Homo sapiens, UniProt Q00526)).
For Microtubule-associated serine/threonine-protein kinase 1 (MAST1, Homo sapiens, UniProt Q9Y2H9): remaining binding read 100%.
The remaining binding was 100% (Mitogen-activated protein kinase kinase kinase kinase 4 (MAP4K4, Homo sapiens, UniProt O95819)).
It gave 100% for remaining binding (Serine/threonine-protein kinase PAK 6 (PAK6, Homo sapiens, UniProt Q9NQU5)).
Epidermal growth factor receptor (EGFR, Homo sapiens, UniProt P00533) — remaining binding: 97%.
For Non-receptor tyrosine-protein kinase TYK2, JH2 (TYK2, Homo sapiens, UniProt P29597): remaining binding read 82%.
Mitogen-activated protein kinase 10 (MAPK10, Homo sapiens, UniProt P53779) — remaining binding: 71%.
The remaining binding was 100% (Ribosomal protein S6 kinase alpha-1, C-terminal kinase domain (RPS6KA1, Homo sapiens, UniProt Q15418)).
Serine/threonine-protein kinase Nek9 (NEK9, Homo sapiens, UniProt Q8TD19) — remaining binding: 71%.
Testis-specific serine/threonine-protein kinase 1 (TSSK1B, Homo sapiens, UniProt Q9BXA7) — remaining binding: 99%.

Series 3
Compound: CC#CC(=O)N1CCC[C@H]1c1nc(-c2ccc(C(=O)Nc3ccccn3)cc2)c2c(N)nccn12
Effect on: enzyme activity
Action: inhibitor
Tested at: 1 µM
For Phosphatidylinositol 4,5-bisphosphate 3-kinase catalytic subunit alpha isoform (PIK3CA, Homo sapiens, UniProt P42336, E545K): inhibition read 33%.
Hormonally up-regulated neu tumor-associated kinase (HUNK, Homo sapiens, UniProt P57058) — inhibition: 0%.
Cyclin-dependent kinase-like 5 (CDKL5, Homo sapiens, UniProt O76039) — inhibition: 5%.
MAP kinase-activated protein kinase 5 (MAPKAPK5, Homo sapiens, UniProt Q8IW41) — inhibition: 8%.
It gave 18% for inhibition (Macrophage-stimulating protein receptor (MST1R, Homo sapiens, UniProt Q04912)).
SRSF protein kinase 2 (SRPK2, Homo sapiens, UniProt P78362) — inhibition: 4%.
The inhibition was 0% (Hepatocyte growth factor receptor (MET, Homo sapiens, UniProt P08581, M1250T)).
The inhibition was 26% (RAF proto-oncogene serine/threonine-protein kinase (RAF1, Homo sapiens, UniProt P04049)).
The inhibition was 16% (Death-associated protein kinase 1 (DAPK1, Homo sapiens, UniProt P53355)).
For Dual specificity mitogen-activated protein kinase kinase 7 (MAP2K7, Homo sapiens, UniProt O14733): inhibition read 17%.
Macrophage colony-stimulating factor 1 receptor, autoinhibited (CSF1R, Homo sapiens, UniProt P07333) — inhibition: 0%.

Series 4
Compound: COc1ccc2[nH]c3c4[nH]c5ccc(OC)cc5c4c4c(c3c2c1)C(=O)NC4=O
Method: competitive binding panel
Tested at: 1 µM
Relative to: vehicle
Casein kinase I isoform delta (CSNK1D, Homo sapiens, UniProt P48730) — remaining binding: 94%.
It gave 100% for remaining binding (MAP/microtubule affinity-regulating kinase 4 (MARK4, Homo sapiens, UniProt Q96L34)).
For Dual specificity protein kinase CLK2 (CLK2, Homo sapiens, UniProt P49760): remaining binding read 56%.
For Protein-tyrosine kinase 2-beta (PTK2B, Homo sapiens, UniProt Q14289); refers to: PYK2: remaining binding read 68%.
The remaining binding was 100% (Activin receptor type-1B (ACVR1B, Homo sapiens, UniProt P36896)).
Serine/threonine-protein kinase 17B (STK17B, Homo sapiens, UniProt O94768); refers to: DRAK2 — remaining binding: 2.2%.
Ephrin type-A receptor 3 (EPHA3, Homo sapiens, UniProt P29320) — remaining binding: 86%.

Some of these lines once more (series 1):
With `OC[C@H]1O[C@@H](n2cnc3c(NC4CCCC4)ncnc32)[C@H](O)[C@@H]1O` the remaining activity was 99.3%.
For `C=CC(=O)Nc1cccc(Nc2nc(Nc3ccc(N4CCN(C(C)=O)CC4)cc3OC)ncc2C(F)(F)F)c1`, the remaining activity was 103%.
For `CC(=O)/N=c1/sc(S(N)(=O)=O)nn1C`, the remaining activity was 102% and 99.3%.
For `CCOc1nc(NC(=O)Cc2cc(OC)ccc2OC)cc(N)c1C#N`, the remaining activity was 98.1%.
`NCCCCCCCCCCN` has a remaining activity of 104%.
